# Assay results from different studies.
SMILES,cell line,read-out,technique,time,setting,CC50 [µM]
CC(C)C[C@H](NC(=O)OCc1ccccc1)C(=O)N[C@@H](CC(C)C)C(=O)N[C@@H](CC1CCNC1=O)C(=O)C(=O)NC1CC1 (stereo partly shown),Huh-7,,,5 (unit not given),,> 250
CC[C@H](C)[C@H](NC(=O)[C@H](CO)NC(=O)[C@H](CC(N)=O)NC(=O)[C@H](CC(C)C)NC(=O)[C@H](CCCNC(=N)N)NC(=O)[C@H](CC(N)=O)NC(=O)[C@H](CS)NC(=O)[C@H](CCCCN)NC(=O)[C@@H](NC(=O)[C@H](CCCCN)NC(=O)[C@H](CC(C)C)NC(=O)[C@H](CC(N)=O)NC(=O)[C@@H](NC(=O)[C@@H]1CCCN1C(=O)[C@@H]1CCCN1C(=O)[C@H](Cc1ccc(O)cc1)NC(=O)[C@H](CCCCN)NC(=O)[C@H](CC(N)=O)NC(=O)[C@@H](NC(=O)[C@H](C)NC(=O)[C@H](CCCNC(=N)N)NC(=O)[C@H](CCCNC(=N)N)NC(=O)[C@@H](NC(=O)[C@H](CO)NC(=O)[C@H](CC(N)=O)NC(=O)[C@@H](NC(=O)[C@H](Cc1ccccc1)NC(=O)[C@H](CO)NC(=O)[C@H](CCCCN)NC(=O)[C@@H](NC(=O)[C@H](Cc1ccccc1)NC(=O)[C@H](CCCCN)NC(=O)[C@@H](N)C(C)C)C(C)C)[C@@H](C)CC)[C@@H](C)CC)[C@@H](C)CC)[C@@H](C)CC)[C@@H](C)CC)C(=O)O,"THP-1, PMA-differentiated",cell viability,MTT,,,14.7
Nc1ncnc2c1ccn2[C@@]12C[C@H]1[C@H](CO)[C@@H](O)[C@H]2O,monkey cell line,,visual,,,> 100
CCOc1ccc2cc(C(=O)Nc3nc4ccccc4[nH]3)[nH]c2c1,293T or HeLa,,CellTiter-Glo,72 h,,> 10
CC[C@H](C)[C@H](NC(=O)[C@H](C)NC(=O)[C@H](CCCCN)NC(=O)[C@H](CC(N)=O)NC(=O)[C@@H](NC(=O)[C@H](CCCCN)NC(=O)[C@H](CCCCN)NC(=O)[C@H](CC(C)C)NC(=O)[C@@H](NC(=O)[C@H](CCCCN)NC(=O)CNC(=O)[C@@H](NC(=O)CNC(=O)[C@H](CC(N)=O)NC(=O)[C@@H](NC(=O)CNC(=O)[C@H](Cc1ccc(O)cc1)NC(=O)[C@H](CCCNC(=N)N)NC(=O)[C@H](CCSC)NC(=O)[C@@H](NC(=O)[C@H](CCSC)NC(=O)[C@H](C)NC(=O)[C@H](CC(C)C)NC(=O)[C@H](CCC(N)=O)NC(=O)[C@H](CCCCN)NC(=O)[C@H](CCCCN)NC(=O)[C@@H](NC(=O)[C@@H](N)CCCNC(=N)N)[C@@H](C)O)C(C)C)C(C)C)C(C)C)[C@@H](C)CC)[C@@H](C)CC)C(=O)N[C@H](C(=O)N[C@@H](CO)C(=O)N[C@@H](CCCCN)C(=O)N[C@@H](CCCCN)C(=O)N[C@@H](CC(N)=O)C(=O)N[C@@H](CCCCN)C(=O)O)C(C)C,"THP-1, PMA-differentiated",cell viability,MTT,,,14.8
Clc1ccc(Cl)c(-c2nn3c(Cn4nnc5ccccc54)nnc3s2)c1,HEp-2,cytotoxicity,,,,> 100
CC[C@H](C)[C@H](N)C(=O)N1CCC[C@H]1C(=O)N[C@@H](CC(C)C)C(=O)N[C@@H](Cc1ccccc1)C(=O)N[C@@H](CCCNC(=N)N)C(=O)N[C@@H](CCCNC(=N)N)C(=O)N[C@@H](Cc1ccccc1)C(=O)NCC(=O)N[C@@H](CCCNC(=N)N)C(=O)N[C@@H](CCC(N)=O)C(=O)N[C@@H](CCCNC(=N)N)C(=O)N[C@@H](CCCCN)C(=O)N[C@H](C(=O)NCC(=O)NCC(=O)N[C@@H](CCCNC(=N)N)C(=O)NCC(=O)N[C@@H](CCCNC(=N)N)C(=O)N[C@H](C(=O)N[C@H](C(=O)N[C@@H](CO)C(=O)N1CCC[C@H]1C(=O)N[C@@H](Cc1ccc(O)cc1)C(=O)N[C@@H](CCCNC(=N)N)C(=O)N[C@H](C(=O)N1CCC[C@H]1C(=O)N[C@H](C(=O)N[C@@H](CC(C)C)C(=O)N[C@@H](CCCNC(=N)N)C(=O)N[C@@H](CCCNC(=N)N)C(=O)N[C@@H](Cc1c[nH]cn1)C(=O)N[C@@H](CCCNC(=N)N)C(=O)N[C@@H](Cc1ccc(O)cc1)C(=O)N[C@@H](CO)C(=O)N[C@H](C(=O)N[C@@H](Cc1ccccc1)C(=O)N[C@@H](CCCNC(=N)N)C(=O)O)[C@@H](C)CC)C(C)C)[C@@H](C)O)[C@@H](C)CC)[C@@H](C)CC)[C@@H](C)CC,"THP-1, PMA-differentiated",cell viability,MTT,,,34.9
COc1ccc(-c2nn3c(Cn4c(-c5ccccn5)nc5ccccc54)nnc3s2)cc1OC,HEp-2,cytotoxicity,,,,> 100
CC[C@H](C)[C@H](NC(=O)[C@H](CCCNC(=N)N)NC(=O)[C@H](CCCCN)NC(=O)[C@H](CCC(N)=O)NC(=O)[C@H](CCCNC(=N)N)NC(=O)[C@H](CCCNC(=N)N)NC(=O)[C@H](Cc1c[nH]cn1)NC(=O)[C@H](CC(C)C)NC(=O)[C@H](CC(C)C)NC(=O)[C@H](CCCNC(=N)N)NC(=O)[C@H](CC(C)C)NC(=O)CN)C(=O)N[C@H](C(=O)NCC(=O)NCC(=O)N[C@@H](CCCCN)C(=O)N[C@@H](CC(N)=O)C(=O)N[C@@H](CO)C(=O)N[C@@H](CC(C)C)C(=O)N[C@@H](CCCNC(=N)N)C(=O)NCC(=O)NCC(=O)N[C@@H](Cc1c[nH]c2ccccc12)C(=O)N1CCC[C@H]1C(=O)N[C@@H](Cc1c[nH]c2ccccc12)C(=O)N[C@@H](CCC(N)=O)C(=O)N[C@H](C(=O)N[C@@H](CO)C(=O)N[C@@H](CC(C)C)C(=O)N[C@@H](CCCNC(=N)N)C(=O)N[C@@H](CC(C)C)C(=O)N[C@@H](CCCCN)C(=O)O)C(C)C)[C@@H](C)CC,"THP-1, PMA-differentiated",cell viability,MTT,,,33.8
CCOc1ccccc1-c1nn2c(Cn3c(-c4ccccn4)nc4ccccc43)nnc2s1,HEp-2,cytotoxicity,,,,1.3
CC(C)C[C@H](NC(=O)[C@H](CCCNC(=N)N)NC(=O)[C@H](CCCNC(=N)N)NC(=O)[C@H](CCCNC(=N)N)NC(=O)[C@@H]1CCCN1C(=O)[C@H](Cc1ccccc1)NC(=O)[C@H](Cc1ccc(O)cc1)NC(=O)[C@H](CCCNC(=N)N)NC(=O)[C@H](Cc1ccc(O)cc1)NC(=O)[C@@H](NC(=O)[C@H](CC(C)C)NC(=O)[C@H](Cc1ccc(O)cc1)NC(=O)[C@H](CCCNC(=N)N)NC(=O)[C@H](Cc1c[nH]cn1)NC(=O)[C@@H]1CCCN1C(=O)[C@H](Cc1c[nH]c2ccccc12)NC(=O)[C@H](Cc1ccc(O)cc1)NC(=O)[C@H](Cc1ccccc1)NC(=O)[C@@H]1CCCN1C(=O)[C@H](CCC(N)=O)NC(=O)[C@H](Cc1ccccc1)NC(=O)[C@@H]1CCCN1C(=O)[C@H](Cc1ccccc1)NC(=O)[C@H](CCCNC(=N)N)NC(=O)[C@H](Cc1c[nH]cn1)NC(=O)[C@H](CC(N)=O)NC(=O)[C@H](CS)NC(=O)[C@H](CCCNC(=N)N)NC(=O)[C@H](CO)NC(=O)[C@@H]1CCCN1C(=O)[C@@H](NC(=O)[C@H](Cc1ccccc1)NC(=O)[C@@H]1CCCN1C(=O)[C@H](CCCNC(=N)N)NC(=O)[C@H](CC(N)=O)NC(=O)[C@@H]1CCCN1C(=O)[C@H](Cc1ccccc1)NC(=O)[C@H](CCCNC(=N)N)NC(=O)[C@@H](N)Cc1ccccc1)C(C)C)[C@@H](C)O)C(=O)N[C@@H](CCC(N)=O)C(=O)N[C@@H](CCCNC(=N)N)C(=O)O,"THP-1, PMA-differentiated",cell viability,MTT,,,58
CN[C@@H]1C[C@H]2O[C@@](C)([C@@H]1OC)n1c3ccccc3c3c4c(c5c6ccccc6n2c5c31)C(=O)NC4,THP-1,,,72 (unit not given),,0.025
CC(C)C[C@H](NC(=O)[C@H](CCCNC(=N)N)NC(=O)[C@H](CCCNC(=N)N)NC(=O)[C@H](CCCNC(=N)N)NC(=O)[C@@H]1CCCN1C(=O)[C@H](Cc1ccccc1)NC(=O)[C@H](Cc1ccc(O)cc1)NC(=O)[C@H](CCCNC(=N)N)NC(=O)[C@H](Cc1ccc(O)cc1)NC(=O)[C@@H](NC(=O)[C@H](CC(C)C)NC(=O)[C@H](Cc1ccc(O)cc1)NC(=O)[C@H](CCCNC(=N)N)NC(=O)[C@H](Cc1c[nH]cn1)NC(=O)[C@@H]1CCCN1C(=O)[C@H](Cc1c[nH]c2ccccc12)NC(=O)[C@H](Cc1ccc(O)cc1)NC(=O)[C@H](Cc1ccccc1)NC(=O)[C@@H]1CCCN1C(=O)[C@H](CCC(N)=O)NC(=O)[C@H](Cc1ccccc1)NC(=O)[C@@H]1CCCN1C(=O)[C@H](Cc1ccccc1)NC(=O)[C@H](CCCNC(=N)N)NC(=O)[C@H](Cc1c[nH]cn1)NC(=O)[C@H](CC(N)=O)NC(=O)[C@H](CS)NC(=O)[C@H](CCCNC(=N)N)NC(=O)[C@H](CO)NC(=O)[C@@H]1CCCN1C(=O)[C@@H](NC(=O)[C@H](Cc1ccccc1)NC(=O)[C@@H]1CCCN1C(=O)[C@@H](N)CCCNC(=N)N)C(C)C)[C@@H](C)O)C(=O)N[C@@H](CCC(N)=O)C(=O)N[C@@H](CCCNC(=N)N)C(=O)O,"THP-1, PMA-differentiated",cell viability,MTT,,,91.9
CC(C)(C)[C@H](NC(=O)C(F)(F)F)C(=O)N1C[C@H]2[C@@H]([C@H]1C(=O)N[C@H](C#N)C[C@@H]1CCNC1=O)C2(C)C,CEM,,,,,> 100
CC[C@H](CO)Nc1nc(NCc2ccc(-c3ccccn3)cc2)c2ncn(C(C)C)c2n1,NCI-60 cell lines,,,,mean,6.84
COc1ccc(N(Cc2cc(Cl)cs2)C(=O)Cc2cncc3ccccc23)cc1,Calu-3,,,48 h,,87.5
COc1cc(-c2nn3c(Cn4cnc5ccccc54)nnc3s2)cc(OC)c1OC,HEp-2,cytotoxicity,,,,> 100
O=C(Nc1ccc(Oc2ccc(Cl)cc2)c(Cl)c1)c1cc(I)cc(I)c1O,LMH chicken hepatoma cells,,,,,164
Cc1nc2ccccc2n1Cc1nnc2sc(-c3ccc(F)c(Br)c3)nn12,HEp-2,cytotoxicity,,,,9.7
CC[C@H](C)[C@H](N)C(=O)N[C@@H](CCCNC(=N)N)C(=O)N[C@@H](CCCNC(=N)N)C(=O)N[C@@H](C)C(=O)N[C@H](C(=O)N[C@@H](CC(N)=O)C(=O)N[C@@H](CCCCN)C(=O)N[C@@H](Cc1ccc(O)cc1)C(=O)N1CCC[C@H]1C(=O)N1CCC[C@H]1C(=O)N[C@H](C(=O)N[C@@H](CC(N)=O)C(=O)N[C@@H](CC(C)C)C(=O)N[C@@H](CCCCN)C(=O)N[C@H](C(=O)N[C@@H](CCCCN)C(=O)N[C@@H](CS)C(=O)N[C@@H](CC(N)=O)C(=O)N[C@@H](CCCNC(=N)N)C(=O)N[C@@H](CC(C)C)C(=O)N[C@@H](CC(N)=O)C(=O)N[C@@H](CO)C(=O)N[C@H](C(=O)N[C@@H](CC(=O)O)C(=O)N1CCC[C@H]1C(=O)N[C@@H](CCCCN)C(=O)N[C@@H](CCC(N)=O)C(=O)N1CCC[C@H]1C(=O)N1CCC[C@H]1C(=O)N[C@@H](CCCNC(=N)N)C(=O)N1CCC[C@H]1C(=O)N[C@@H](Cc1ccccc1)C(=O)N[C@@H](CCCNC(=N)N)C(=O)N[C@@H](CO)C(=O)N[C@@H](Cc1ccccc1)C(=O)N[C@H](C(=O)N1CCC[C@H]1C(=O)NCC(=O)N1CCC[C@H]1C(=O)N[C@@H](CC(C)C)C(=O)N[C@@H](CCCCN)C(=O)N[C@@H](C)C(=O)N[C@H](C(=O)N[C@@H](CC(C)C)C(=O)N[C@@H](CCCCN)C(=O)O)[C@@H](C)O)C(C)C)[C@@H](C)CC)[C@@H](C)CC)[C@@H](C)CC)[C@@H](C)CC,"THP-1, PMA-differentiated",cell viability,MTT,,,25.6
Clc1ccc(-c2nn3c(Cn4cnc5ccccc54)nnc3s2)c(Cl)c1,HEp-2,cytotoxicity,,,,83.3
CC(C)C[C@H](NC(=O)OCc1ccccc1)C(=O)N[C@H](C=O)C[C@@H]1CCCNC1=O,CEM,cytotoxicity,,,,> 100

# For quick reference, copied from above:
SMILES,cell line,read-out,technique,time,setting,CC50 [µM]
O=C(Nc1ccc(Oc2ccc(Cl)cc2)c(Cl)c1)c1cc(I)cc(I)c1O,LMH chicken hepatoma cells,,,,,164
Cc1nc2ccccc2n1Cc1nnc2sc(-c3ccc(F)c(Br)c3)nn12,HEp-2,cytotoxicity,,,,9.7
CC[C@H](C)[C@H](N)C(=O)N[C@@H](CCCNC(=N)N)C(=O)N[C@@H](CCCNC(=N)N)C(=O)N[C@@H](C)C(=O)N[C@H](C(=O)N[C@@H](CC(N)=O)C(=O)N[C@@H](CCCCN)C(=O)N[C@@H](Cc1ccc(O)cc1)C(=O)N1CCC[C@H]1C(=O)N1CCC[C@H]1C(=O)N[C@H](C(=O)N[C@@H](CC(N)=O)C(=O)N[C@@H](CC(C)C)C(=O)N[C@@H](CCCCN)C(=O)N[C@H](C(=O)N[C@@H](CCCCN)C(=O)N[C@@H](CS)C(=O)N[C@@H](CC(N)=O)C(=O)N[C@@H](CCCNC(=N)N)C(=O)N[C@@H](CC(C)C)C(=O)N[C@@H](CC(N)=O)C(=O)N[C@@H](CO)C(=O)N[C@H](C(=O)N[C@@H](CC(=O)O)C(=O)N1CCC[C@H]1C(=O)N[C@@H](CCCCN)C(=O)N[C@@H](CCC(N)=O)C(=O)N1CCC[C@H]1C(=O)N1CCC[C@H]1C(=O)N[C@@H](CCCNC(=N)N)C(=O)N1CCC[C@H]1C(=O)N[C@@H](Cc1ccccc1)C(=O)N[C@@H](CCCNC(=N)N)C(=O)N[C@@H](CO)C(=O)N[C@@H](Cc1ccccc1)C(=O)N[C@H](C(=O)N1CCC[C@H]1C(=O)NCC(=O)N1CCC[C@H]1C(=O)N[C@@H](CC(C)C)C(=O)N[C@@H](CCCCN)C(=O)N[C@@H](C)C(=O)N[C@H](C(=O)N[C@@H](CC(C)C)C(=O)N[C@@H](CCCCN)C(=O)O)[C@@H](C)O)C(C)C)[C@@H](C)CC)[C@@H](C)CC)[C@@H](C)CC)[C@@H](C)CC,"THP-1, PMA-differentiated",cell viability,MTT,,,25.6
